# Measured values pooled from the literature.
# Protocols differ between the studies behind these lines. “And” joins repeats or separate records; there may be more than shown. ± marks the error that the study gave.
# CASP8: Caspase-8 (CASP8, Homo sapiens, UniProt Q14790)
# CASP10: Caspase-10 (CASP10, Homo sapiens, UniProt Q92851)
# DCPS: m7GpppX diphosphatase (DCPS, Homo sapiens, UniProt Q96C86)
# HSD3B1: 3 beta-hydroxysteroid dehydrogenase/Delta 5-->4-isomerase type 1 (HSD3B1, Homo sapiens, UniProt P14060)
# T1: DNA, abasic bulge, mismatch; chain GTCCAGTGCAACG; chain CGTTGCGGCTGGAC
SMILES,target,test,system,conditions,scale,quantity,value
O=C(NO)c1ccc(Cn2c3c(c4cc(Br)ccc42)SC(c2ccccc2)C3)s1 (racemic),"Histone deacetylase 8 (Schistosoma mansoni, UniProt A5H660)",X-ray crystallography,,"ligand-Lys20 side chain, C3-NZ",,interatomic distance,3.95 Å
CC1(C)C[C@@H](Nc2cccc(-c3sc(C(=O)O)c(OCC(=O)O)c3Cl)c2)CCN1S(=O)(=O)Cc1cccc(NC(=O)CN2CCC(c3ccc4c(c3)oc(=O)n4C3CCC(=O)NC3=O)CC2)c1 (stereo partly shown),"Tyrosine-protein phosphatase non-receptor type 1 (Mus musculus, UniProt P35821)","degrader, Western blot",B16-F10,10 µM,,remaining protein,4.3% and 2.5%
C#CCOC(=O)[C@]1(C)C=C(C(=O)OC(C)(C)C)C(=O)CC1,"Mitogen-activated protein kinase 8 (MAPK8, Homo sapiens, UniProt P45983)","enzyme activity, D-SENSOR",,"0.06097 µM, single replicate",,normalized kinase activity,1.08 and 1.03 and 1.04
COC[C@@H]([C@H](O)[C@H](O)C(=O)NCC[C@H](C)c1nc(/C=C/C[C@@H]2O[C@]3(C[C@@H](O)[C@@H]2C)O[C@H]([C@H](C[C@H](O)[C@H](C)[C@H](O)[C@H](C)/C=C(C)/C(C)=C/C=C/C(C)=C\C#N)OC)[C@H](OP(=O)(O)OP(=O)(O)O)C3(C)C)co1)N(C)C,native CalL phosphatase,substrate,,,,Km,27.4 ± 2.94 µM
CC(=O)N[C@H](C(=O)N[C@@H](CCC(=O)O)C(=O)N[C@@H](CO)C(=O)N[C@@H](CC(=O)O)C(=O)COC(=O)c1c(C)cccc1C)[C@@H](C)O,CASP8,inhibitor,,recombinant enzyme,,kobs/[I],658000 M⁻¹ s⁻¹
O=C(c1ccc(C(=O)N2CCC(N3CCCCC3)CC2)cc1)N1CCC(N2CCCCC2)CC1,"Lethal(3)malignant brain tumor-like protein 3 (Homo sapiens, UniProt Q96JM7)",FRAP,human cells,1 µM,,diffusion coefficient,0.0357 µm2/s
O=C1c2sc(-c3ccc(N4CCC(CO)CC4)nc3F)nc2CCN1c1cccnc1,"TAR DNA-binding protein 43, aggregated (TARDBP, Homo sapiens, UniProt Q13148)",radioligand binding,"human, FTLD-TDP type B sarkosyl-insoluble extract",72.89 nM,,specific binding,2.61 nM and 1.68 nM
CC(=O)N[C@@H](CC(=O)O)C(=O)N[C@H](C(=O)N[C@@H](C)C(=O)N[C@@H](CC(=O)O)C(=O)COC(=O)c1c(C)cccc1C)[C@@H](C)OCc1ccccc1,CASP8,"enzyme activity, inhibitor",,,,kinact/KI,191000 M⁻¹ s⁻¹
Cc1cc(C(=O)NCCNC(=O)c2cccc(COc3ccccc3C(N)=O)c2)n[nH]1,"Poly [ADP-ribose] polymerase 1 (PARP1, Homo sapiens, UniProt P09874)","enzyme activity, inhibitor",,0.104 µM,,inhibition,100%
CCCCCCCCCCCCC/C=C/C=O,"Gasdermin-D (GSDMD, Homo sapiens, UniProt P57764)","competitive isoTOP-ABPP, measured: GSDMDC1 cysteine peptide","proteome, soluble, MDA-MB-231","100 µM, added: iodoacetamide probe","relative to: DMSO over compound-treated, higher = stronger cysteine blockade",isoTOP-ABPP competition ratio,1
CC(C)[C@@H]1NC(=O)[C@H](Cc2ccccc2)NC(=O)CSC[C@@H](C(N)=O)NC(=O)[C@H](CCC(=O)O)NC(=O)[C@H](CO)NC(=O)[C@H](Cc2c[nH]c3cccc(Cl)c23)NC(=O)[C@H](C2CCCCC2)NC(=O)[C@H](C(C)C)NC(=O)[C@H](Cc2ccc(O)cc2)NC(=O)[C@H](CC(=O)O)NC(=O)[C@H](Cc2c[nH]c3ccccc23)NC(=O)[C@H](Cc2ccc(N)nc2)NC(=O)[C@H](Cc2c[nH]c3ccc(Cl)cc23)NC(=O)[C@H](CCC(=O)O)NC1=O,"Interleukin-1 receptor-like 2 (IL1RL2, Homo sapiens, UniProt Q9HB29)","reporter gene (SEAP), inhibitor, HEK-Blue IL-36R reporter",HEK-Blue IL-36R cells,"11.11 µM, 6 h, added: IL-36γ 100 ng/mL",,remaining activity,82.1%
CC[C@H](C)[C@H](NC(=O)[C@@H](NC(=O)[C@H](CCCCN)NC(=O)[C@@H](NC(=O)CNC(=O)[C@@H](N)CCCNC(=N)N)[C@@H](C)O)C(C)C)C(=O)N[C@@H](CC(C)C)C(=O)N[C@@H](Cc1c[nH]cn1)C(=O)N[C@@H](CC(C)C)C(N)=O,"Microtubule-associated protein tau (MAPT, Homo sapiens, UniProt P10636)","fibril formation, ThT fluorescence",,"5-fold of tau, at plateau, added: wild-type tau 10 µM, heparin",relative to: untreated,ThT fluorescence,3 ± 3%
C=CC(=O)N1CCCC(n2c(=O)c3ncccc3n(Cc3ccc(Oc4ccccc4)cc3)c2=O)C1 (stereo not shown),"Secernin-1 (SCRN1, Homo sapiens, UniProt Q12765)","thermal proteome profiling, measured: SCRN1",,treated,,melting temperature,45 °C and 50.4 °C
CC(=O)N[C@@H](CC(C)C)C(=O)N[C@@H](CCC(=O)O)C(=O)N[C@H](C(=O)N[C@@H](CC(=O)O)C(=O)COC(=O)c1c(C)cccc1C)C(C)C,CASP10,"enzyme activity, inhibitor",,,,kinact/KI,377000 M⁻¹ s⁻¹
CC[C@H](C)[C@H](NC(=O)[C@@H](NC(=O)[C@@H](NC(=O)[C@@H](NC(=O)[C@H](CCCCN)NC(=O)[C@H](CCC(=O)O)NC(=O)[C@H](C)N)C(C)C)C(C)C)C(C)C)C(=O)N[C@H](C(=O)N[C@@H](CCCCN)C(N)=O)[C@@H](C)O,"Microtubule-associated protein tau, PHF6* peptide (MAPT, Homo sapiens, UniProt P10636)","fibril formation, ThT fluorescence",,"0.1-fold of peptide, pH 7.4, added: Ac-PHF6* 25 µM, heparin",relative to: untreated,ThT fluorescence,105 ± 4%
C[n+]1cn([C@@H]2O[C@H](COP(=O)(O)OP(=O)([O-])OP(=O)(O)OP(=O)(O)OC[C@H]3O[C@@H](n4cnc5c(=O)[nH]c(N)nc54)[C@H](O)[C@@H]3O)[C@@H](O)[C@H]2O)c2nc(N)nc(O)c21,DCPS,"substrate, HPLC",,"concentration not given, 30 min",,hydrolysis,55.7 ± 0.8%
Cc1cc(C)cc(COc2cc3c(cc2OCc2cc(C)cc(C)c2)C2CC(O)(Cc4cn(CCOCCOCCNC(=O)CCCCC5SCC6NC(=O)NC65)nn4)CC(C)N2CC3)c1 (stereo not shown),"ATP synthase peripheral stalk subunit b, mitochondrial (Homo sapiens, UniProt P24539)","biotinylated probe pull-down, measured: ATP5PB",,10 µM probe,relative to: heavy over light,SILAC ratio,1.83
CCCCCC=CC=C1C(=O)C=CC1CC=CCCCC(=O)O (stereo not shown),"Exportin-2 (Homo sapiens, UniProt P55060)","competitive isoTOP-ABPP, measured: CSE1L cysteine peptide",Ramos soluble proteome,"100 µM, added: iodoacetamide probe","relative to: DMSO over compound-treated, higher = stronger cysteine blockade",isoTOP-ABPP competition ratio,1.5
C[n+]1cn([C@@H]2O[C@H](COP(=O)([O-])OP(=O)(O)CP(=O)(O)O)[C@@H](O)[C@H]2O)c2nc(N)nc(O)c21,DCPS,"substrate, HPLC",,"concentration not given, 120 min",,hydrolysis,0%
Cc1ccc2ccc(NC(=O)OCCCNCCCOC(=O)Nc3ccc4ccc(C)nc4n3)nc2n1,"T1, DNA, abasic bulge, mismatch",CSI-TOF mass spectrometry,,,,binding,binds weakly
Cc1cn(CC(=O)N(CCNC(=O)CN(CCNC(=O)CN(CCNC(=O)CN(CCNC(=O)CN(CCNC(=O)CN(CCNC(=O)CN(CCNC(=O)CN(CCN)C(=O)Cn2cnc3c(=O)[nH]c(N)nc32)C(=O)Cn2cnc3c(N)ncnc32)C(=O)Cn2cc(C)c(=O)[nH]c2=O)C(=O)Cn2cnc3c(=O)[nH]c(N)nc32)C(=O)Cn2cc(C)c(=O)[nH]c2=O)C(=O)Cn2cnc3c(=O)[nH]c(N)nc32)C(=O)Cn2cnc3c(N)ncnc32)CC(=O)NCCN(CC(=O)NCCOCCOCC(N)=O)C(=O)Cn2cnc3c(N)ncnc32)c(=O)[nH]c1=O,complementary DNA,"duplex formation, UV melting curve fit",PBS,1 µM,,ΔH,-70.6 ± 0.8 kcal/mol
O=C(CCCCCCS)Nc1ccccc1,"Histone deacetylase 8 (HDAC8, Homo sapiens, UniProt Q9BY41)",ITC,Tris-HCl buffer,283 K,,TΔS°,7.1 kcal/mol
C[Si](C)(C)C[C@H](CN)CC(=O)O,"Galanin receptor type 2 (GALR2, Homo sapiens, UniProt O43603)","enzyme activity, inhibitor",,250 µM,,inhibition,-8%
COc1ccccc1-c1ccncc1C(=O)Nc1nnc(OCc2ccc(Cl)cc2)s1,"DNA polymerase theta, helicase domain (POLQ, Homo sapiens, UniProt O75417)","ATPase activity, ADP-Glo",,"0.004 µM, added: ATP 600 µM",,remaining activity,85%
CCCCCC(O)/C=C/C=O (stereo not shown),"Enoyl-CoA delta isomerase 2 (ECI2, Homo sapiens, UniProt O75521)","competitive isoTOP-ABPP, measured: PECI cysteine peptide","proteome, soluble, MDA-MB-231","100 µM, added: iodoacetamide probe","relative to: DMSO over compound-treated, higher = stronger cysteine blockade",isoTOP-ABPP competition ratio,1.7
COc1ccc(C2(C(=O)N3CCC(Nc4nc5ccccc5c(=O)[nH]4)CC3)CC2)cc1,"MRGPRD (Homo sapiens, UniProt Q8TDS7, Q182A)","miniGq recruitment, agonist, BRET",HEK293T,Q182A mutant,,Hill slope,0.76
CC(=O)N[C@H](C(=O)N[C@@H](CCC(N)=O)C(=O)N[C@@H](CO)C(=O)N[C@@H](CC(=O)O)C(=O)COC(=O)c1c(C)cccc1C)C(C)(C)C,CASP10,"enzyme activity, inhibitor",,,,kinact/KI,314000 M⁻¹ s⁻¹
Cc1cnc2nc1Nc1cccc(c1)COC/C=C/COCc1cc(ccc1OCCN1CCOCC1)N2,"Cyclin-dependent kinase 13 (CDK13, Homo sapiens, UniProt Q14004)",,,"concentration not given, gene name CDC2L5",,percent of control,76%
CC(=O)N[C@@H](CC(C)C)C(=O)N[C@@H](CCC(N)=O)C(=O)N[C@@H](CO)C(=O)N[C@@H](CC(=O)O)C(=O)COC(=O)c1c(C)cccc1C,CASP10,"enzyme activity, inhibitor",,,,kinact/KI,315000 M⁻¹ s⁻¹
O=c1c(-c2ccccc2)coc2cc(O)ccc12,HSD3B1,[3H]-DHEA conversion,LNCaP,"0.1 µM, normalized to protein, unit not given",relative to: vehicle,DHEA metabolism,1.15
CC(=O)N[C@@H](CO)C(=O)N[C@@H](Cc1ccccc1)C(=O)N[C@@H](C)C(=O)N[C@@H](CC(=O)O)C(=O)COC(=O)c1c(C)cccc1C,CASP8,"enzyme activity, inhibitor",,,,kinact/KI,502000 M⁻¹ s⁻¹
Cn1cc(-c2cc(N3CCCCS3(=O)=O)ccc2N[C@H]2CC[C@H](C)CC2)c2cc[nH]c2c1=O (stereo in doubt),"Transcription intermediary factor 1-alpha, PHD-bromodomain (TRIM24, Homo sapiens, UniProt O15164)","bromodomain binding, competition binding",,"1 µM, PHD-bromodomain",relative to: control,remaining binding,100%
CNC(=O)C1CCN(c2cc(C)c(F)cc2NC(=O)c2ccc(-c3cc(O)ccc3C)c(C)c2)CC1,"Tyrosine-protein kinase ABL1, non-phosphorylated (ABL1, Homo sapiens, UniProt P00519)","binding, competition with immobilised ligand",,1 µM,,remaining binding,36%
CC(=O)N1[C@H](C(=O)N[C@H](C(=O)N[C@@H](Cc2c[nH]cn2)C(=O)N[C@@H](CC(=O)O)C(=O)COC(=O)c2c(C)cccc2C)C(C)(C)C)C[C@@H]2CCCC[C@@H]21,CASP8,"enzyme activity, inhibitor",,,,kinact/KI,187000 M⁻¹ s⁻¹
O=c1c(-c2ccc(CN3CCCC3)cc2)coc2cc(O)ccc12,HSD3B1,[3H]-DHEA conversion,LNCaP,"0.1 µM, normalized to protein, unit not given",relative to: vehicle,DHEA metabolism,0.35
CCCC[C@H](NC(=O)[C@H](CC(=O)O)NC(C)=O)C(=O)N1[C@H](C(=O)N[C@@H](CC(=O)O)C(=O)COC(=O)c2c(C)cccc2C)C[C@@H]2CCCC[C@@H]21,CASP10,"enzyme activity, inhibitor",,,,kinact/KI,118000 M⁻¹ s⁻¹
CCCc1cc(=O)oc2cc(O)c(O)cc12,"Alpha-1A adrenergic receptor (ADRA1A, Homo sapiens, UniProt P35348)","intracellular Ca2+ mobilization, agonist",COS-7,500 µM,relative to: 3 µM ionomycin,agonist activity,4.37 ± 2.04%

# A few entries again:
SMILES,target,test,system,conditions,scale,quantity,value
C#CCOC(=O)[C@]1(C)C=C(C(=O)OC(C)(C)C)C(=O)CC1,"Mitogen-activated protein kinase 8 (MAPK8, Homo sapiens, UniProt P45983)","enzyme activity, D-SENSOR",,"0.06097 µM, single replicate",,normalized kinase activity,1.08 and 1.03 and 1.04
COC[C@@H]([C@H](O)[C@H](O)C(=O)NCC[C@H](C)c1nc(/C=C/C[C@@H]2O[C@]3(C[C@@H](O)[C@@H]2C)O[C@H]([C@H](C[C@H](O)[C@H](C)[C@H](O)[C@H](C)/C=C(C)/C(C)=C/C=C/C(C)=C\C#N)OC)[C@H](OP(=O)(O)OP(=O)(O)O)C3(C)C)co1)N(C)C,native CalL phosphatase,substrate,,,,Km,27.4 ± 2.94 µM
CC(=O)N[C@H](C(=O)N[C@@H](CCC(=O)O)C(=O)N[C@@H](CO)C(=O)N[C@@H](CC(=O)O)C(=O)COC(=O)c1c(C)cccc1C)[C@@H](C)O,CASP8,inhibitor,,recombinant enzyme,,kobs/[I],658000 M⁻¹ s⁻¹
O=C(c1ccc(C(=O)N2CCC(N3CCCCC3)CC2)cc1)N1CCC(N2CCCCC2)CC1,"Lethal(3)malignant brain tumor-like protein 3 (Homo sapiens, UniProt Q96JM7)",FRAP,human cells,1 µM,,diffusion coefficient,0.0357 µm2/s
O=C1c2sc(-c3ccc(N4CCC(CO)CC4)nc3F)nc2CCN1c1cccnc1,"TAR DNA-binding protein 43, aggregated (TARDBP, Homo sapiens, UniProt Q13148)",radioligand binding,"human, FTLD-TDP type B sarkosyl-insoluble extract",72.89 nM,,specific binding,2.61 nM and 1.68 nM
